Assay results pooled from the literature.
Compare with care: the assays were run in different laboratories. Numbers after ± are the reported error.
Target: Sodium-dependent dopamine transporter (Slc6a3, Rattus norvegicus, UniProt P23977)
Chain of UniProt P23977 (whole entry, looked up): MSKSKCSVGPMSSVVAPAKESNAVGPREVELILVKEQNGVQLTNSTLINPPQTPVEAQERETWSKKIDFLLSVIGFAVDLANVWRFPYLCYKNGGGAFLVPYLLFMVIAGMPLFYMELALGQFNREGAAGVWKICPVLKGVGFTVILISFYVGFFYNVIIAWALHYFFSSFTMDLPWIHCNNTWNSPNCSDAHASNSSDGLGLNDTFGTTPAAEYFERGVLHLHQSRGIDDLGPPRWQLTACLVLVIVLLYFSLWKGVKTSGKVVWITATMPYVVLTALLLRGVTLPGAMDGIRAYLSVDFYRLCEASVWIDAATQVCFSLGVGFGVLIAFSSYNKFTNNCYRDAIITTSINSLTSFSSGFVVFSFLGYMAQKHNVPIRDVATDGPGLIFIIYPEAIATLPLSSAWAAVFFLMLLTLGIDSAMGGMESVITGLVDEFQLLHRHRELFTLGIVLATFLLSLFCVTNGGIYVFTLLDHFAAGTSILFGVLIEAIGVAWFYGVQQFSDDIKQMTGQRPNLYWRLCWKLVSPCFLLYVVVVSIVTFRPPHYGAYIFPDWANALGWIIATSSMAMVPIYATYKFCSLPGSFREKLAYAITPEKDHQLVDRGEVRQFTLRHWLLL

With CN1CCN(CCc2ccc(Cl)c(Cl)c2)CC1 the Ki was 8020 nM (ligand displacement, radioligand).
CC(C)N(C)CCc1c[nH]c2ccccc12 has an IC50 of greater than 10000 nM (inhibitor).
With CNC(C)C(=O)c1ccccc1 (stereo not shown) the EC50 was 25 nM (substrate release, releasing agent; rat striatal synaptosomes; with: [3H]MPP+).
CN(CCc1ccc(Cl)c(Cl)c1)CCN1CCCC1 has a Ki of 2510 nM (ligand displacement, radioligand).
The IC50 of CCCN(CCC)CCc1c[nH]c2ccc(OC)cc12 is reported as 17000 ± 2190 nM (inhibitor).
For CCNC(C)Cc1ccccc1 (stereo not shown), the EC50 was 88.5 ± 9.6 nM (dopamine release, releaser; rat brain synaptosomes).
CCN(CC)CCc1c[nH]c2ccc(OC)cc12 gave an IC50 of greater than 10000 nM (inhibitor).
The EC50 of Cc1ccc([C@H]2OC(N)=N[C@H]2C)cc1 (relative stereo) is reported as 10.9 ± 0.7 nM (substrate release, releaser; rat brain synaptosomes; with: [3H]MPP+ 9 nM).
With CC(C)N(CCc1c[nH]c2ccccc12)C(C)C the IC50 was 4790 ± 416 nM (inhibitor).
c1ccc(CCN2CCCCC2)cc1 gave a Ki of 2940 nM (ligand displacement, radioligand).
For Cc1ccc([C@H]2OC(N)=N[C@H]2C)cc1 (racemic), the EC50 was 8.6 ± 1.1 nM (substrate release, releaser, [3H]MPP+ release; rat brain synaptosomes; with: [3H]MPP+ 9 nM).
With CCC[C@@H](C(=O)c1ccccc1)N1CCCC1 the IC50 was 7 nM (transporter uptake, inhibitor, radiometric).
CCN(CC)CCc1c[nH]c2ccccc12 gave an IC50 of greater than 10000 nM (inhibitor).
The EC50 of CNC(C)Cc1ccc2occc2c1 (stereo not shown) is reported as 41 ± 3 nM (transporter-mediated release, substrate; rat striatal synaptosomes; 30 min, with: [3H]MPP+).
C[C@@H]1N=C(N)O[C@H]1c1ccc2c(c1)OCO2 (racemic) gave an EC50 of 36.2 ± 3.6 nM (substrate release, releaser; rat brain synaptosomes; with: [3H]MPP+ 9 nM).
CON(C)C(C)C(=O)c1ccc(C)cc1 (stereo not shown) has an IC50 of 6090 nM (dopamine transport).
CCCNC(C)C(=O)c1ccccc1 (stereo not shown) gave an IC50 of greater than 10000 nM (dopamine uptake, inhibitor; rat brain synaptosomes; with: [3H]dopamine).
With CNC(C)C(=O)c1cccc(Cl)c1 (stereo not shown) the EC50 was 26 nM (substrate release, releaser; rat striatal synaptosomes; with: [3H]MPP+).
CCCC(C(=O)c1ccc2c(c1)OCO2)N1CCCC1 (racemic) gave an IC50 of 4.85 nM (transporter uptake, inhibitor, radiometric).

Repeated from above:
With CC(C)N(CCc1c[nH]c2ccccc12)C(C)C the IC50 was 4790 ± 416 nM (inhibitor).
c1ccc(CCN2CCCCC2)cc1 gave a Ki of 2940 nM (ligand displacement, radioligand).
For Cc1ccc([C@H]2OC(N)=N[C@H]2C)cc1 (racemic), the EC50 was 8.6 ± 1.1 nM (substrate release, releaser, [3H]MPP+ release; rat brain synaptosomes; with: [3H]MPP+ 9 nM).
